Assay results of several laboratories.
A part holds a random share of what one study measured.

Set 1 — technique: RNA Bind-n-Seq; form: RNA; sample: in vitro; tested at: 200 nM; notes: whole 134-nt RNA, ends assumed; with: 150 mM LiCl; baseline: input library; direction: higher = stronger binding; quantity: log2 enrichment; all molecules: 7-deaza-guanosine replaces G
Target: Ras GTPase-activating protein-binding protein 1, full length (G3BP1, Homo sapiens, UniProt Q13283)
Sequence of UniProt Q13283 (whole entry, looked up): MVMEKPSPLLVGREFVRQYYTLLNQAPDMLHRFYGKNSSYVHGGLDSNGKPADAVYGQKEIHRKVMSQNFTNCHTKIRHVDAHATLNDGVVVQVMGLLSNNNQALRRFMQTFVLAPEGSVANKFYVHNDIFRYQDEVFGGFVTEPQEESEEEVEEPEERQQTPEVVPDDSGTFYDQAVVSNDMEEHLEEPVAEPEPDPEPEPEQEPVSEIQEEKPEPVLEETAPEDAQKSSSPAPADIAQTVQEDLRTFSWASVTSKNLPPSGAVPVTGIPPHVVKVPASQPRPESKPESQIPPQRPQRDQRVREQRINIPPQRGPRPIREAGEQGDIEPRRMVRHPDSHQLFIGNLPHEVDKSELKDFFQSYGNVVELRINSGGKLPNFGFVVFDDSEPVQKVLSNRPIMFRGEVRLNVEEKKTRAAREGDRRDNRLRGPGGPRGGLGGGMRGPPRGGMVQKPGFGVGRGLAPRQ
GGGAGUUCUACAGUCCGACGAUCCAAGUCCUGUGCUACACAUCGUAUGUACCGAAUCGGGGAAAGGGGAGGGGUGGGGAAAGUAUUAUGUUACGCCGUUCGGAUCUGCACUUCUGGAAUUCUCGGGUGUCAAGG: 0.309
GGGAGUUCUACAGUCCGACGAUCUCCUCAAGUCCUGUGCUACACAUCGUAUGUACCGAAUCGGUGGGUGGGUGGAAAGUAUUAUGUUACGCCGUUCGGAUCUGCACUUCCAGCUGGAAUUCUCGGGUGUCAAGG: 0.805
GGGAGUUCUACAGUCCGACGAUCGCAGGAAGUAAAAACAAAUGGAAAUGCUUCGGAUAGUGGCAGGGGUGGGGGUUGCUAAGGAAAGGGUGGCAUGGGAGUGGGUAAAGAGUUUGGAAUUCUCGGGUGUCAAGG: 0.0321
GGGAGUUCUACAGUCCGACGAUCUCCUCAAGUCCUGUGCUACACAUCGUAUGUACCGAAUCGGGAGGAGGGAGGGAAAGUAUUAUGUUACGCCGUUCGGAUCUGCACUUCCAGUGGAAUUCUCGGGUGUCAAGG: -0.312
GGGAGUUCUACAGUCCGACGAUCUCCUCAAGUCCUGUGCUACACAUCGUAUGUACCGAAUCGGAAAGGUGGAGGAAAGUAUUAUGUUACGCCGUUCGGAUCUGCACUUCCAGCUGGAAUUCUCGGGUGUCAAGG: -0.82
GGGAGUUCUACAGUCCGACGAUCUUCCUCAAGUCCUGUGCUACACAUCGUAUGUACCGAAUCGGCGGCGGCGGGAAAGUAUUAUGUUACGCCGUUCGGAUCUGCACUUCCAGCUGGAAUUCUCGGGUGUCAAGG: 1.23
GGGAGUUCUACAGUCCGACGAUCUUCCUCAAGUCCUGUGCUACACAUCGUAUGUACCGAAUCGGUGGGUGGUGGAAAGUAUUAUGUUACGCCGUUCGGAUCUGCACUUCCAGCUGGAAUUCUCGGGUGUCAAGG: 0.507
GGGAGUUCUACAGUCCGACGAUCUCAAGUCCUGUGCUACACAUCGUAUGUACCGAAUCGGGAAAAAGGGAGGGUGGGAAAGUAUUAUGUUACGCCGUUCGGAUCUGCACUUCCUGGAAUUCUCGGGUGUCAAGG: -0.315
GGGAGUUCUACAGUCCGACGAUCUCCUGUGCUACACAUCGUAUGUACCGAAUCAAAUUUAAACCCCCCCAAACCCCCCCAAAAAAGUAUUAUGUUACGCCGUUCGGAUCUGCAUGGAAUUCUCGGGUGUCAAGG: -0.0096
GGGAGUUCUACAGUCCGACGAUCCAAGUCCUGUGCUACACAUCGUAUGUACCGAAUCGGGAAAGGGGAAAGGGAAAGGGAAAGUAUUAUGUUACGCCGUUCGGAUCUGCACUUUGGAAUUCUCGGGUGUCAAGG: -0.332
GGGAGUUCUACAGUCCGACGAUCUCCUCAAGUCCUGUGCUACACAUCGUAUGUACCGAAUCGGGGAGGGAGGAGGAAAGUAUUAUGUUACGCCGUUCGGAUCUGCACUUCCAGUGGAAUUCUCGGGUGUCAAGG: -0.271

Set 2 — technique: universal PBM; form: double-stranded DNA, one strand shown; sample: in vitro; tested at: not given; direction: higher = stronger binding; quantity: E-score
Target: Sal-like protein 4, full length isoform B (SALL4, Homo sapiens, UniProt Q9UJQ4-2, residues 1-616)
Notes: 8-mer, flanks averaged, mean of replicates
GTACAAGA: 0.126
CCGTGCGA: -0.0486
GGAAGCCA: -0.171
CCCTCGAG: -0.206
GCAATCAA: 0.0502
CGGAGACA: -0.166
AGATAAGC: 0.0882
ACATCACT: 0.186
GCCCCGAA: -0.288
CCGGCCAC: -0.352
ACCTGGAC: -0.315
TCATACGA: 0.189
AACTCACG: 0.0915
ACTGGGCG: -0.24
ATTATCAG: 0.231
AGCTCGCC: -0.306
CACGGGGA: -0.308
CGATGTGA: 0.0008
AGGCGGTA: -0.207
AGCTGTCC: -0.183

Set 3 — technique: protein-binding microarray; form: double-stranded DNA, one strand shown; sample: in vitro; tested at: 2540 nM top; notes: 60-bp whole probe; with: salmon DNA 0.4 mg/ml; baseline: random background probes; direction: higher = stronger binding; quantity: fitted relative affinity; all sequences stand within: GCCTAGCAC … GTCTTGATTCGCTTGACGCTGCTG
Target: Interferon regulatory factor 3, full length, phosphomimetic (IRF3, Homo sapiens, UniProt Q14653, residues 1-427, S386D/S396D/S398D/S402D/T404D/S405D)
Sequence of UniProt Q14653 (whole entry, unmodified, looked up): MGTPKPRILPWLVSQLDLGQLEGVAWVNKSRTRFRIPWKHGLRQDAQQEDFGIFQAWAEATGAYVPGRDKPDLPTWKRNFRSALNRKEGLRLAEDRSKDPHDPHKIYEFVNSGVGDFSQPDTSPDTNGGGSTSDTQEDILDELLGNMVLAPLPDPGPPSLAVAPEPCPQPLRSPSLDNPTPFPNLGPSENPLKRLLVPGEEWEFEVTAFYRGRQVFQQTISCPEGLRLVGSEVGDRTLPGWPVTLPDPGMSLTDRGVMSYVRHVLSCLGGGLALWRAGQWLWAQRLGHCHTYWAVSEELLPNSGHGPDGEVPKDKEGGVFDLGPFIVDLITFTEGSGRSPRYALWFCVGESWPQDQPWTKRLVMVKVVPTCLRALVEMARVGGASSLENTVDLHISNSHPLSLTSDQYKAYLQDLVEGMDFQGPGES
GACGGACTGGGTATGGGGACGTGCTAG: -0.703 z-score
TACGATTTCGGGTATCGAGACGTGCTA: 1.34 z-score
GACGGACTGCTACTGCCGACGTGCTAG: -0.62 z-score
TTAGGTTTCCTTTTCCGTTAGTGCTAG: 10.8 z-score
TTAGGACTGGGACTGGGTTGGTGCTAG: -1 z-score
TATTCCCCATCACTCACTCTGTGCTAG: 1.36 z-score
GACGGTATCCTTTTCCTGAAGTGCTAG: 7.85 z-score
GAGGATCTCAGTATCGAGACGTGCTAG: 0.15 z-score
GGGTGAATGTGTCTTAAATAGTGCTAG: -0.262 z-score
TGAGGTATCGACTATCGGTTAGTGCTA: 0.157 z-score
TGGTTTTTACTTTCTGAATGGTGCTAG: 3.46 z-score
TCATCTATCTTAAATAGGACTGTGCTA: 1.04 z-score
CTAGGACTGGACTATCGGTTAGTGCTA: -0.178 z-score
TTGTGTGTGTGTTTGTGTGTGTGCTAG: -0.758 z-score
GGTGTTTTCTAAACCATTGTGTGCTAG: 1.08 z-score
TTAGGTTTCGGTATCGGTTTGTGCTAG: 8.94 z-score
TCATGCATCTGATTTCTCACTGTGCTA: -0.122 z-score
TTAGATTCCAGCTTCGATTAGTGCTAG: 2.02 z-score
GACGGTTACCTTTCCCTGACGTGCTAG: 5.8 z-score
GACGGTATCGGGTCTCGGGACGTGCTA: 2.94 z-score

Set 4 — technique: RNA Bind-n-Seq; form: RNA; sample: in vitro; tested at: 365 nM; baseline: no-protein control; direction: higher = stronger binding; quantity: RBNS enrichment (R)
Target: RNA binding protein fox-1 homolog 2, RRM domain, GST-SBP tag (RBFOX2, Homo sapiens, UniProt O43251-10, residues 100-194)
Notes: natural RNA segment, single round, ends assumed
Residues (chain): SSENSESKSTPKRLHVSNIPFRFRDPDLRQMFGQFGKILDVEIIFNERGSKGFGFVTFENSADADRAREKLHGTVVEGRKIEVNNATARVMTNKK
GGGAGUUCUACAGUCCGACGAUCAGACUCUGAUGGAAGGAAGGUGCCGUAGGUGGGCUUUUAGAAACUAACGGGACUGGUUUUCAAAGCAGUUAUCUUGGGAAACUGUUUAUUCCAGCGAUGUGACUUUUUUCUGGAAUUCUCGGGUGCCAA: 0.567
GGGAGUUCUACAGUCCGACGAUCCCUCAUCACCUCAUGGCCAAUUUGCACUUUGCCAGACUGGAUGGAAUAGAGAAGGGUCCUGUGGAGUUCCAGGCCCUGGCUGCAAUGCUCCACACACACACACACCCCUCUGGAAUUCUCGGGUGCCAA: 0.636
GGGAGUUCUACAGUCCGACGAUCGACUCCCAGGAGACAGUGUGGGAAACGCUCCUGCUUUAAUUCCCCGAGAAACGGCUCUUCCUGCCUGGAUGCAGGAGGGCAGGGGCCACCACAGAUUAAAGCUGUUACUGUGGAAUUCUCGGGUGCCAA: 0.999
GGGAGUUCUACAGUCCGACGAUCAAAACUGAUAAUAAUUGGGACAUCAUCUUACUUCCCAAAAUGUGUUUGCCUGUCCCCGGAGGCUGGAAGUAGAAGCCAGGCUACAUCUAAGUUGCCCUGACUGGCCUUCAUGGAAUUCUCGGGUGCCAA: 0.637
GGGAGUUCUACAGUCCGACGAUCCUGCCUGAGCCCCGUGGCCUCUCAGCUCUGCGGCCACCCCGUUCCCUCCCCAGCUUCCUGCCCAAAGAGCCCCACAUUCAAGCCAACUUGAGGGAAGGGGGCGUCUCGUCUGGAAUUCUCGGGUGCCAA: 0.466
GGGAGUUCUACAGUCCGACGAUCUCAGAGGACUUUAUUUUCCUCUCUACCUACUCUUUUGGGUGUCACUGUCUCCAGACAGCAGGGCCCUUUGUCUCUGAGAAAUUAGCCAUCCAGAAUAGAAUCUGUAACAAUGGAAUUCUCGGGUGCCAA: 0.206
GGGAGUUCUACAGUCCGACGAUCGGACAGCAAGCAAACCAUUUCUCUCCGUCUGUUCUGUUUUUCUCCUAGUCCCUCUCCUGCCACCUCUCCAAGACUUCCGUGGGACACCCACUUCCCUCUGUCCUAGUUCUUGGAAUUCUCGGGUGCCAA: 0.878
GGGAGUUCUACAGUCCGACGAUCUGAGCGUUUAAUUUAUUCAGUACCUGUGUUUGUGUGAAUGCGGUGUGUGCAGGCAUCGCAGAUGGGGGUUCUUUCAGUUCAAAAGUGAGAUGUCUGGAGAUCAUAUUUUUUGGAAUUCUCGGGUGCCAA: 1.85
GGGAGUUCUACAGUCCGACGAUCUGUCAUCCUUUGUGACAUUGUUACCCUGAGGUAUACUCCCUGCAGUGAGCUGGUCUUCCUGAAGUGGGCCUGCUUUGCACUAUAGGCUGCUUGUAUGUUUGGUUUGUUGUUGGAAUUCUCGGGUGCCAA: 25.6
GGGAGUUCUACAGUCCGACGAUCUUCUCAGAUGGGAUGACUGCGGGUCAGUGCACCGAAGAGGCGGGCGCAGGCGCUGUCUGGCUCAGCUGCCCCCUUGGGGUGGGCAGGGAGGACCAGACUGCUUGGGUGAUUGGAAUUCUCGGGUGCCAA: 0.326
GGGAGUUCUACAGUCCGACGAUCCCAGGUGGCUUUAGGGUCCUAAGGAGUGGAGAAGGAUGGCACUGGGGAGGUCUGGAUGGAUCUGUGUAGGAGUUCCCUGUAGAUAAAUUACUGAUCCCCCAUCUACUAUCUGGAAUUCUCGGGUGCCAA: 1.2
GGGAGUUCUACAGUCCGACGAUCGUCCUGGGCGCUUCCCUUUUAAGCAAGGGCGCCUCACCUGCUCUUCAAGAAACAGCGAGAGGGAGACCCAGGGGGCUGAAACUUGAACUCUGGUUCUUUUAAAAUUAAUUUGGAAUUCUCGGGUGCCAA: 1.02

Set 5 — technique: protein binding microarray; form: double-stranded DNA, one strand shown; sample: in vitro; tested at: not given; baseline: not given; direction: higher = stronger binding; quantity: E-score
Target: Histone acetyltransferase KAT6A, winged helix 1, GST fusion (KAT6A, Homo sapiens, UniProt Q92794, residues 1-85)
Notes: 8-mer, flanks averaged, mean of 2 arrays, mostly near background
Residues (chain): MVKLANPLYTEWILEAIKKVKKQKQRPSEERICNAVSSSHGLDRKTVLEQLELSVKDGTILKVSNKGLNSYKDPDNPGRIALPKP
GAAACCAC: -0.198
GTTACGTA: 0.0234
ATAAGTGA: -0.214
GCCTACCC: 0.0394
AGAAATGC: -0.0488
AGATTAAG: -0.174
CGACGCGA: 0.347
CTCGGAAG: 0.00602
GCGCCGAA: 0.395
ACAAAGAT: -0.202
TAGACACA: -0.16
GCAGCCCA: -0.0264
ACCGGCGC: 0.426
AGCGATGA: 0.0659
AATTAATG: 0.0168
TGGCGTAA: -0.00245
ATAGTGAA: -0.176
CTTCCCGC: 0.334
CAGGCTAC: -0.199

Repeated from above (set 5):
ATAAGTGA: -0.214
GCCTACCC: 0.0394
AGAAATGC: -0.0488
AGATTAAG: -0.174
CGACGCGA: 0.347
CTCGGAAG: 0.00602
GCGCCGAA: 0.395
